Assay results gathered from unrelated publications.
Each numbered part is a random draw from the data of one study; scales do not carry over between parts.

Series 1 — method: aptamer microarray, sandwich; form: DNA with 2'F-ANA; sample: in vitro; tested at: 200 nM; together with: Cy3 exosite-II aptamer, 400 nM; direction: higher = stronger binding; sequence: GGTTGGTGTGGTTGG
Target: Prothrombin, mature alpha-thrombin (F2, Homo sapiens, UniProt P00734)
Notes: whole 15-mer aptamer, many near background
`2'F-ANA at 2 4 5 7 9 10 11 12 13 15`: “mean fluorescence intensity” 52.6 a.u.
For `2'F-ANA at 1 3 4 6 9 12 15`, “mean fluorescence intensity” read 325 a.u.
For `2'F-ANA at 2 3 6 7 8 9 10 11 13 14 15`, “mean fluorescence intensity” read 224 a.u.
For `2'F-ANA at 1 2 3 5 6 9 10 12`, “mean fluorescence intensity” read 52.3 a.u.
`2'F-ANA at 1 6 7 9 10 11 15`: “mean fluorescence intensity” 61.2 a.u.
`2'F-ANA at 2 4 5 7 9 14` — result for “mean fluorescence intensity”: 45.4 a.u.
Under “mean fluorescence intensity”, `2'F-ANA at 1 2 4 6 7 8 13 15` is recorded as 94.6 a.u.

Series 2 — method: universal PBM; form: double-stranded DNA, one strand shown; sample: in vitro; tested at: not given; direction: higher = stronger binding
Target: Sal-like protein 4, full length isoform B (SALL4, Homo sapiens, UniProt Q9UJQ4-2, residues 1-616)
Notes: 8-mer, flanks averaged, mean of replicates
`CCTTTGGA` gave an E-score of -0.217.
For `ACGACCGA`, the E-score was -0.0902.
The E-score of `GAGTATCA` is reported as 0.0655.
For `ACTCATTA`, the E-score was 0.219.
With `CATTAGAA` the E-score was 0.176.
For `CGTTCACA`, the E-score was 0.0544.
For `GCATAGGA`, the E-score was -0.00083.
For `AACACCTC`, the E-score was -0.0373.

Series 3 — method: RNA Bind-n-Seq; form: RNA; sample: in vitro; tested at: not given; relative to: input RNA pool; direction: higher = stronger binding
Target: RING finger protein unkempt homolog, zinc fingers 1-6, GST-SBP tag (UNK, Homo sapiens, UniProt Q9C0B0, residues 30-357)
UniProt Q9C0B0, sequence (30-357, looked up): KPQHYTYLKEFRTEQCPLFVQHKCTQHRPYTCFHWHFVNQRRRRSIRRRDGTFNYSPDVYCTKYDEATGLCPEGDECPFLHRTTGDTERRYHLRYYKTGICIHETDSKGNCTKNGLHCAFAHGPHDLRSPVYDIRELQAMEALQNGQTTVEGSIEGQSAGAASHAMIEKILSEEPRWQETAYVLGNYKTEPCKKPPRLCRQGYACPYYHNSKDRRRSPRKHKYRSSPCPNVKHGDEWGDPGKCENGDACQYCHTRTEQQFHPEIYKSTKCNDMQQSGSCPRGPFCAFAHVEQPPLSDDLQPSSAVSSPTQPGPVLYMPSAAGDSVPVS
Notes: RNA with constant flanks, human and mouse sites, ends assumed
For `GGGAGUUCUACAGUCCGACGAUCCAGAUGCUGCAUAACAUGAAGGGACAGUUUGCUGAGCAUCUUCUUGGAGCUGGAUUUGUAAGCAGUAGAAGUCCCAAAGAUCCAAAAGCUAAUAUAAAUUCAGAUAAUGAGAAGAUAAUUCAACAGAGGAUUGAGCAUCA`, the bound/input enrichment was 0.141 ratio.
`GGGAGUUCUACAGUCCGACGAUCGAGAUGAACCUUAUGCAUGCGCCUCAAGUUGCAGAUGCUAUUCUAGGCAAUCAGAUGUUCACACAUUAUGACCGGGCUCAUAUUGCUCAACUGUGUGAAAAGGCUGGCCUACUGCAGCGUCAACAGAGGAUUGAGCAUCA` gave a bound/input enrichment of 0.148 ratio.
For `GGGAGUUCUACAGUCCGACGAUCCGGGAAUUCAUGAUCAAAACCCGCCGUAGGAAGGGCCUCAGUGAAGAUGUGAGCAUCAGCAAAUUCUUCGAUGAUCCUAUGUUGCUGGAACUUGCCAAACAGGAUGUUGUGCUCAAUUACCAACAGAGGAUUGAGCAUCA`, the bound/input enrichment was 0.172 ratio.
For `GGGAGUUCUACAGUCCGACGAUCUAAGAGUUUUGCUGUUAACUCCUUAAGAGGGCUUUAAAGCCUUUUAUAUUAAGUGCCAUACAACUUCAGAUGCCUUCUGAAUACUGAACACAAGUGUAAUAUUAUAGUUCAUUAAAUGUCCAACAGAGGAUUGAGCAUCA`, the bound/input enrichment was 0.457 ratio.
`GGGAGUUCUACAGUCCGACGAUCCCACCUCUAGCUUUCUUCCUACCCCAUUCCCGGCUUCCCUCCUCCUCCCCUGCAGCCUGGUUAGGUGGAUACCUGCCCUGACAUGUGAGGCAAGCUAAGGCCUGGAGGGUCAGAUGGGAGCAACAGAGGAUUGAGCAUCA` gave a bound/input enrichment of 0.324 ratio.

Mixed results
With `PhoQ, residues 284 288 289 292 302 303 SLANKL` the fold induction was 8.99 (PhoP, residues 12 14 15 18 19 NMSSL (Escherichia coli, UniProt P23836); Sort-seq, item: YFP reporter; E. coli; PhoQ-PhoP variant library, together with: 10 µM Mg2+; relative to: high Mg2+ state, higher = stronger signaling).

Some of these lines once more (series 2):
For `ACGACCGA`, the E-score was -0.0902.
With `CATTAGAA` the E-score was 0.176.
The E-score of `GAGTATCA` is reported as 0.0655.
